Measurements from different studies.
Numbered parts are unrelated; each lists some results of a single study.
Chain of UniProt P35372 (whole entry, looked up): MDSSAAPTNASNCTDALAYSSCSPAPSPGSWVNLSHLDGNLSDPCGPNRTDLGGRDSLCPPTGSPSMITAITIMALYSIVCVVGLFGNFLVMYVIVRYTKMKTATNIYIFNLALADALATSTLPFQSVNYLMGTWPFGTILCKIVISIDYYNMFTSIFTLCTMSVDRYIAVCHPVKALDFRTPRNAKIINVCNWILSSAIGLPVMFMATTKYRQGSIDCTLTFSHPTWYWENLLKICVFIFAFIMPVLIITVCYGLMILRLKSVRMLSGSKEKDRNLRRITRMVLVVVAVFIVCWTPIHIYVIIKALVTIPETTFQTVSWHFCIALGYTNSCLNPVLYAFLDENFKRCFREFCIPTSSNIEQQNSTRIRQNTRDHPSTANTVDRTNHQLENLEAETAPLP
Chain of UniProt P11229 (whole entry, looked up): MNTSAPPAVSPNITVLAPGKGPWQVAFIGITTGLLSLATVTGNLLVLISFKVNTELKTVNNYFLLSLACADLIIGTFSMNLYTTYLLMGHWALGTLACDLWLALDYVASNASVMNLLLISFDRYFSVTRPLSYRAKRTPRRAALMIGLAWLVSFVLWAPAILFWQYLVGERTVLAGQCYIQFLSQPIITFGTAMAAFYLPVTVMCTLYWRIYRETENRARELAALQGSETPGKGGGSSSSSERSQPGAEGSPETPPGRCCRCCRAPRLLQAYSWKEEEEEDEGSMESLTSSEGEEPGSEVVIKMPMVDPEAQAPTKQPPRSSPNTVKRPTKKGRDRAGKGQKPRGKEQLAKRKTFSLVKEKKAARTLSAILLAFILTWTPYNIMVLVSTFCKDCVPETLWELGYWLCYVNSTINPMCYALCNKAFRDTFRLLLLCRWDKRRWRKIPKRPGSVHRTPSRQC
Chain of UniProt P08908 (whole entry, looked up): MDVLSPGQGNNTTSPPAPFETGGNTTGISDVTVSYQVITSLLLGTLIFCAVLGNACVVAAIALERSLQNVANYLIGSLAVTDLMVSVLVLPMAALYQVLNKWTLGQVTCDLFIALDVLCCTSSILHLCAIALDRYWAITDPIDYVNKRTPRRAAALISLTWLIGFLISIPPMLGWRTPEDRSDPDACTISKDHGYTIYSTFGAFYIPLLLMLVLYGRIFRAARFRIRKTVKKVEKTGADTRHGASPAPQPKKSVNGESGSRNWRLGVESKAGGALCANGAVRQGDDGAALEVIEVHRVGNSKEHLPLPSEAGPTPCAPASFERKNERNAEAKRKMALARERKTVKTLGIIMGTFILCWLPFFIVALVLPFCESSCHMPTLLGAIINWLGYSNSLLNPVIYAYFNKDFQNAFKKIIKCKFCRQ
Chain of UniProt P41145 (whole entry, looked up): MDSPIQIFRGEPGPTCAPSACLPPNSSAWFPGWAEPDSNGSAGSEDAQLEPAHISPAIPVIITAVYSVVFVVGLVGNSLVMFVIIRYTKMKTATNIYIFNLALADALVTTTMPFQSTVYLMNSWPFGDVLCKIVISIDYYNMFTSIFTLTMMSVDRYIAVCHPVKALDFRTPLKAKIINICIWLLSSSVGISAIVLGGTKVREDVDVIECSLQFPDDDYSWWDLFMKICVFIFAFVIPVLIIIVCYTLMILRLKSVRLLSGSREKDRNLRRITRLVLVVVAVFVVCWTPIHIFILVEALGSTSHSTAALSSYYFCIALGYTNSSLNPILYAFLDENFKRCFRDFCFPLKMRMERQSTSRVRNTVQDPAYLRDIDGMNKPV
Chain of UniProt P41143 (whole entry, looked up): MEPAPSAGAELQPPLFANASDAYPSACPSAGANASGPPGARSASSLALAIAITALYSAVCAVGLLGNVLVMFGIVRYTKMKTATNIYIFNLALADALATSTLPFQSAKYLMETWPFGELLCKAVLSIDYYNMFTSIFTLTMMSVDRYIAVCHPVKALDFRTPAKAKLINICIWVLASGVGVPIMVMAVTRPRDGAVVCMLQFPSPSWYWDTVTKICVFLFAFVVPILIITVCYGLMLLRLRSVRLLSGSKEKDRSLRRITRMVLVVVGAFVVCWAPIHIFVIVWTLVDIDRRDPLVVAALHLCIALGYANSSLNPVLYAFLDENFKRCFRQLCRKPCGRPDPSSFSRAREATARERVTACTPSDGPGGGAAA
Chain of UniProt P21918 (whole entry, looked up): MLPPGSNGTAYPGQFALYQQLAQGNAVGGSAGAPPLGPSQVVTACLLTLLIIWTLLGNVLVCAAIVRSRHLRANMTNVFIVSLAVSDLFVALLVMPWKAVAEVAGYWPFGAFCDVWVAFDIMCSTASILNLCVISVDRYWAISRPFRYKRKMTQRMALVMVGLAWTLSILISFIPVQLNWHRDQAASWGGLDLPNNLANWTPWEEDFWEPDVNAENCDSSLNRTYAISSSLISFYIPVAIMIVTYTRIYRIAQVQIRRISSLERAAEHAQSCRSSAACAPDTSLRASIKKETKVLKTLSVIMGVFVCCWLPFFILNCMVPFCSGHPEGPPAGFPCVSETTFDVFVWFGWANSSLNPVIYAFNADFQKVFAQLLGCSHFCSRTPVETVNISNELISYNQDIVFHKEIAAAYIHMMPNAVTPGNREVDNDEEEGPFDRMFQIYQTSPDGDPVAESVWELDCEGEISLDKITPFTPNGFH
Chain of UniProt P20309 (whole entry, looked up): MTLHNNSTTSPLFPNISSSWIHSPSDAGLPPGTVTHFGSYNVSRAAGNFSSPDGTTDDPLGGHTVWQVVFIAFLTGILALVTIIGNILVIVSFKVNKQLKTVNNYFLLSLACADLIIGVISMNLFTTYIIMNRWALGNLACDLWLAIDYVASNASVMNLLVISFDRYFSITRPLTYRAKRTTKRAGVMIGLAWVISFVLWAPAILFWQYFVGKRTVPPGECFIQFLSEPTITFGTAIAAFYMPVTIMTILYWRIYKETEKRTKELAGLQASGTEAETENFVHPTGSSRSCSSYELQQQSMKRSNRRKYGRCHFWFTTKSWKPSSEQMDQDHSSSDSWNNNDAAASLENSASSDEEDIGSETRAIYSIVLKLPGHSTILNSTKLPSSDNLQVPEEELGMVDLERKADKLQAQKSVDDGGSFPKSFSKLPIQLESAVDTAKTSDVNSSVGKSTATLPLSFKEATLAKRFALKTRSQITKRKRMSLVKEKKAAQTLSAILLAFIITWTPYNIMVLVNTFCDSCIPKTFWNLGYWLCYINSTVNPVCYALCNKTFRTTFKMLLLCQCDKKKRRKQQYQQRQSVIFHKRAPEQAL

Block 1 — mode: agonist
Target: Beta-1 adrenergic receptor (ADRB1, Homo sapiens, UniProt P08588)
Chain of UniProt P08588 (whole entry, looked up): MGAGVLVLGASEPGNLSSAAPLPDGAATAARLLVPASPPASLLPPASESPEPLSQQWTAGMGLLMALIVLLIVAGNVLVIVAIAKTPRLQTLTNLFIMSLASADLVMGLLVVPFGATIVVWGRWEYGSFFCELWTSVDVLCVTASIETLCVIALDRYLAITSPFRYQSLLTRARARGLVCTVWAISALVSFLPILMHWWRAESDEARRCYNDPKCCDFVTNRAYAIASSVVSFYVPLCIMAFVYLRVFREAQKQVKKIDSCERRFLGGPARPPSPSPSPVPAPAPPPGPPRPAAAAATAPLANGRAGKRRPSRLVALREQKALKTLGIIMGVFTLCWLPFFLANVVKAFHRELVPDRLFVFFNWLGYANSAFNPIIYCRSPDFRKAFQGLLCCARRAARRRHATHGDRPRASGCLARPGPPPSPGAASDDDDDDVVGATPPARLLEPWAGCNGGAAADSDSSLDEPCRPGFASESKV
Compound	EC50 [µM]
COc1cc(CCN)ccc1O	≥ 100
CCC(O)c1cc2n(n1)CCN(c1nc(-c3ccccc3)nc3c1CCC3)C2 (centres unmarked)	≥ 100
Fc1cc(C2=CC3CCC(C2)N3Cc2ccc3ccccc3n2)ccc1-c1ccccc1 (centres unmarked)	≥ 100
CC(C)(C)NCC(O)c1ccc(O)c(O)c1 (centres unmarked)	≥ 100
O=C1NCC2(CCCN(Cc3cc(O)c4cccc(F)c4n3)C2)O1 (centres unmarked)	≥ 100

Block 2 — read-out: cell-free assay; tested at: 10 µM
SMILES: C[C@H](c1ccc(F)cc1)N(Cc1ccc(Cl)c(C(=O)O)c1)C(=O)c1cnc2ccccc2c1
target	inhibition [%]
Kappa-type opioid receptor (OPRK1, Homo sapiens, UniProt P41145)	-0.42
Mu-type opioid receptor (OPRM1, Homo sapiens, UniProt P35372)	0.07
Muscarinic acetylcholine receptor M1 (CHRM1, Homo sapiens, UniProt P11229)	14.5
5-hydroxytryptamine receptor 1A (HTR1A, Homo sapiens, UniProt P08908)	-3.79
D(1B) dopamine receptor (DRD5, Homo sapiens, UniProt P21918)	12.8
Delta-type opioid receptor (OPRD1, Homo sapiens, UniProt P41143)	12.4
Muscarinic acetylcholine receptor M3 (CHRM3, Homo sapiens, UniProt P20309)	39

Block 3 — cell line: HaCaT; tested at: 100 µM; time: 18 h
SMILES	viability
C/C=C(\C)C(=O)N[C@@H](c1ccccc1)[C@@H](O)C(=O)O[C@H]1C[C@@]2(O)[C@@H](OC(=O)c3ccccc3)[C@@H]3[C@]4(OC(C)=O)CO[C@@H]4C[C@H](O)[C@@]3(C)C(=O)[C@H](OC(C)=O)C(=C1C)C2(C)C	74.8%
NCC(O)c1ccc(O)cc1 (centres unmarked)	107%
CN(C(=O)/C=C/c1ccoc1)[C@@H]1CC[C@@]2(O)[C@H]3Cc4ccc(O)c5c4[C@@]2(CCN3CC2CC2)[C@H]1O5	96.5%
C[C@@H](CO)NC(=O)[C@@H]1C=C2c3cccc4[nH]cc(c34)C[C@H]2N(C)C1	92.4%
COc1ccc(CN(C(=O)[C@@H](N)Cc2c(C)cc(C(N)=O)cc2C)[C@@H](C)c2nc(-c3ccccc3)c[nH]2)cc1C(=O)O	120%

Block 4 — read-out: RNA clamping; method: fluorescence polarization; tested at: concentration not given; notes: mean of two replicates; added: FAM-labelled poly r(AG)8 RNA
Target: Eukaryotic initiation factor 4A-I (EIF4A1, Homo sapiens, UniProt P60842)
Chain of UniProt P60842 (whole entry, looked up): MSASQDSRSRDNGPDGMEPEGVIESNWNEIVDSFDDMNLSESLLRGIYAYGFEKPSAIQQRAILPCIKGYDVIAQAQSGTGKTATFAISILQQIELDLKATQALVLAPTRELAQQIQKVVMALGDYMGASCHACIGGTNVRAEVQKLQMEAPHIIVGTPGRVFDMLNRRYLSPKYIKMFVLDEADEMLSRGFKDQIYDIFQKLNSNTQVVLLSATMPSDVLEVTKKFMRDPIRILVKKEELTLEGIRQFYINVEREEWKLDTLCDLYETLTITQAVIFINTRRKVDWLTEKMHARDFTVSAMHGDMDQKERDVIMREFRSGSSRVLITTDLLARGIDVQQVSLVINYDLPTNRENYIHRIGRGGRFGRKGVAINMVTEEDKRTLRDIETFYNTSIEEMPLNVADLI
SMILES	fluorescence polarization change
COc1ccc([C@@]23Oc4cc(OC)cc(OC)c4[C@]2(O)c2nc(-c4ccc(Cl)cc4)[nH]c(=O)c2[C@H]3c2ccccc2)cc1	6.7 mP
COc1ccc([C@@]23Oc4cc(OC)cc(OC)c4[C@]2(O)c2nc(-c4ccc(Cl)nc4)[nH]c(=O)c2[C@H]3c2ccccc2)cc1	28 mP
COc1ccc([C@@]23Oc4cc(OC)cc(OC)c4[C@]2(OC)c2nc(-c4ccccc4)nc(OC)c2[C@H]3c2ccccc2)cc1	-4.4 mP
COc1ccc([C@]23Oc4cc(OC)cc(OC)c4[C@](O)([C@H](c4ccccc4)[C@H]2C(=O)NCCCCNC(=O)c2ccccc2)[C@H]3O)cc1	-1.4 mP
COc1ccc([C@]23Oc4cc(OC)cc(OC)c4[C@@]2(O)[C@@H](O)C[C@@H]3c2ccccc2)cc1	1.8 mP
COC(=O)[C@H]1[C@@H](O)[C@@]2(O)c3c(OC)cc(OC)cc3O[C@@]2(c2ccc(Br)cc2)[C@@H]1c1ccccc1	38.5 mP
COc1ccc([C@@]23Oc4cc(OC)cc(OC)c4[C@@]24NC(C)=NC4=C(C=O)[C@H]3c2ccccc2)cc1	44.6 mP
COc1ccc([C@@]23Oc4cc(OC)cc(OC)c4[C@]2(O)c2nc(C(C)C)[nH]c(=O)c2[C@H]3c2ccccc2)cc1	35.1 mP
COc1ccc([C@@]23Oc4cc(OC)cc(OC)c4[C@]2(O)c2nc(-c4ccc(Br)cc4)[nH]c(=O)c2[C@H]3c2ccccc2)cc1	1.9 mP
COc1ccc([C@@]23Oc4cc(OC)cc(OC)c4[C@]2(O)c2nc(-c4ccncc4)[nH]c(=O)c2[C@H]3c2ccccc2)cc1	23.9 mP
[2H]C([2H])([2H])C1=N[C@@]2(O)[C@H](C(=O)OC)[C@@H](c3ccccc3)[C@]3(c4ccc(OC)cc4)Oc4cc(OC)cc(OC)c4[C@]23N1	71.9 mP
CCOC(=O)COc1nc(-c2ccccc2)nc2c1[C@@H](c1ccccc1)[C@]1(c3ccc(OC)cc3)Oc3cc(OC)cc(OC)c3[C@]21O	8.7 mP
